# Published values of several laboratories.
# Every numbered part comes from another study and shows a few of its results, in no order.

# Study 1
# Target: Histone acetyltransferase KAT6A, both winged helices, GST fusion (KAT6A, Homo sapiens, UniProt Q92794, residues 1-181)
# Method: protein binding microarray
# Molecule type: double-stranded DNA, one strand shown
# Matrix: in vitro
# Concentration: not given
# Notes: 8-mer, flanks averaged, mean of 2 arrays, mostly near background
# Reference: not given
# Reading: higher = stronger binding
# Construct (chain): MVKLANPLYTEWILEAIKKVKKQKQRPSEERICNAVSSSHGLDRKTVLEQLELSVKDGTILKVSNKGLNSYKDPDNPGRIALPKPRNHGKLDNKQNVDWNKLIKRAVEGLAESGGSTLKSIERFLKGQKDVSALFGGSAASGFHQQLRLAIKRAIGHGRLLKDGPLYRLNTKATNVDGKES
Sequence,E-score
AGTCCTTA,-0.137
GATTCAGA,-0.152
AGGGATAC,-0.131
AGTATGGC,0.0035
AATCGGCG,0.243
CGACCGGA,0.147
ACGAATAG,-0.124
AAGGACCT,0.0182
ACTACTCT,-0.039
ATCCACAT,-0.0868
CAACGCTG,0.0706
CAATTATG,0.14
TAGACGAA,-0.0505
CTGGGAGA,-0.168
ATAAATAT,-0.105
AATAGGAG,-0.0873
ATGTGCTC,-0.149
AATCGGGA,0.0693
AAGGAGGG,-0.147
AAACGAGA,0.01
AACTTGCC,-0.108
CTGTAGTA,-0.0553
GAACCAAA,-0.162
GCGCTTAC,0.35
GCAATCCC,0.121

# Study 2
# Target: Interferon regulatory factor 7, full length, phosphomimetic (IRF7, Homo sapiens, UniProt Q92985, residues 1-503, S471D/S472D/S475D/S476D/S477D/S483D/S484D/S487D)
# Method: protein-binding microarray
# Molecule type: double-stranded DNA, one strand shown
# Matrix: in vitro
# Concentration: 2200 nM top
# Notes: 60-bp whole probe
# Added: salmon DNA 0.4 mg/ml
# Reference: random background probes
# Reading: higher = stronger binding
# All sequences stand within: GCCTAGCAC … GTCTTGATTCGCTTGACGCTGCTG
# Construct (chain): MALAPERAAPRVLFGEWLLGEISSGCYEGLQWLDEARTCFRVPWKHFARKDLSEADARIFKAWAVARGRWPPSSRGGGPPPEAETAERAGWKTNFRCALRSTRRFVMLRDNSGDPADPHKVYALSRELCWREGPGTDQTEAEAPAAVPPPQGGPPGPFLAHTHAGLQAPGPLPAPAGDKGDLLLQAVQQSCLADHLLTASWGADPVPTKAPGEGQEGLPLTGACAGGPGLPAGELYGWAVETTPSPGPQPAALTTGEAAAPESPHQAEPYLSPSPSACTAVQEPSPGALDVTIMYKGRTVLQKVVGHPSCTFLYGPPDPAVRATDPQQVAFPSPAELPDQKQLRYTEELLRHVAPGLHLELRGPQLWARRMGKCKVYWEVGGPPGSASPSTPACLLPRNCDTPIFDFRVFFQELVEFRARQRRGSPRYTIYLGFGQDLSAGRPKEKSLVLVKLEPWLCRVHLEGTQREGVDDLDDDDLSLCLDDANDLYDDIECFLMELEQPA
Sequence,fitted relative affinity [z-score]
TTAGATTTGGGGTATCGATTAGTGCTA,0.398
TCAGGACTGGACTTTCGGTTAGTGCTA,5.1
TTTGGTCTCGGTATCGGTTAGTGCTAG,1.63
TTAGGACTGGGGACTGGGGTAGTGCTA,-0.728
TCAGTTCCCTATATAAGACTGTGCTAG,1.89
GACGGACTGGGGTTTCGCGACGTGCTA,-0.239
TCAACTCTTGCTTTTTAACTGTGCTAG,0.954
TCAGTTTTCTTTTCCATTTTGTGCTAG,6.35
TTATATTTCAGTTCCGATTAGTGCTAG,2.29
GACTGTTTCGGTCTCGGGACGTGCTAG,4.86
TCATGTGTACATCTCTCACTGTGCTAG,1.19
CCTAGTTTCATTCCTGATCTGTGCTAG,4.06
GACGATTTGGGGACTGGAGACGTGCTA,0.237
GACGAACTGAGACAGGAGACGTGCTAG,-0.447
TTAGGGTTCCTTCTCCTTTAGTGCTAG,0.867
GAACCTTCCCCTCTAGGTTCGTGCTAG,2.52
GACGGACTGGGGTTTCCGGACGTGCTA,-0.549
TTTTTTTTCATCATTGCCTAGTGCTAG,2.63
GACGATCTCTGTTTCGAGACGTGCTAG,2.2
TTAGGTTTCCTGATCCTTTAGTGCTAG,1.46
CGGGCTTTCCCGTCCAGGGCGTGCTAG,-0.72
GGATATATATCATTTAATTAGTGCTAG,0.151
TTAGGGCTGGACTTTCGGTTAGTGCTA,4.06
TTAGGTATTGGGTATCGGTTAGTGCTA,0.463

# Study 3
# Target: RNA binding protein fox-1 homolog 2, RRM domain, GST-SBP tag (RBFOX2, Homo sapiens, UniProt O43251-10, residues 100-194)
# Method: RNA Bind-n-Seq
# Molecule type: RNA
# Matrix: in vitro
# Concentration: 365 nM
# Notes: natural RNA segment, single round, ends assumed
# Reference: no-protein control
# Reading: higher = stronger binding
# All sequences stand within: GGGAGUUCUACAGUCCGACGAUC … UGGAAUUCUCGGGUGCCAA
# Target sequence (chain): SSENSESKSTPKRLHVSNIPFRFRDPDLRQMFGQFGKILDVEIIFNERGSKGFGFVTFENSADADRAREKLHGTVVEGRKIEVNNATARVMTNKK
Sequence,RBNS enrichment (R)
UUUCUAUUCCCUUUCUAACUGCCCAUCGGGCUCAGAACCCCAAUAAUCCCUUCCUUUCACUAUCUUCUUUUUGGGGGGUAGGUGGAAGGGAUUGACAUUGGAUGGGGGAG,0.305
UCCACCCCUGGCCUCUUCCGUAUUUGCUGUUAUCUGCUCCCUCUUUCCUGAGGGGCCUCAGGGCAUUGGAGGGGGCCGACACCCCUCCACUAAAGAUUGAGUGAGGUCUC,0.295
CUCGGUGAAGCCUUUUCCCAGAGCAUAUGUCUCCGGCAGGCAGUGUGGGUUCUUGCCAAGCAUCAGAACCAGUCUCCAGGGCCUCCCGACGCCGAUCCAUAGUACUGUAC,0.31
AAGACUCUGUUCUGGGUGUGGGCCAGGAGGUCUUAGAAAGAAGCUGGCUGUCAGUGACCAUGUGGGCAUUGAGGCUGGUCCCAGAGAUGCUCGAAAGUCAGUGAAAGCUA,0.439
CCAGGACCCUGGGACAUAGAUAAAGCCCGCCUCCAGUCCCUGGGUGCUGGAACAGAUUGUCUGGGAGGCUAGAGCCCUGCCUGUAGAGAAAACACUCUUCUCAGGAGUAG,0.438
AGACCAAUUGGAUUUUCAUGGAGGCCAGGACAGAGAGUGGUAAUUGAUGGCUUGUGUACAGACAAGCAUUUAUCCAGGUUGCGUUAUCCAAACUGAUUUGUUAAAGCUCC,1.81
GUGUUGAUGUGUGUUUUCCCUAAAACUCUAAUUUCAUCUCAUCUGUGGGCAGCCCUGCUCUCUGGACACCAGUGGGUCCUCAGCCCCCAUGGCAGGGGCUCCUCUGUCUG,0.403
GGUUGGUUCCUCAUCCUCCACCCUGACCUUUCCUCUGGCCUGUUCAAGGCCUGGUAAAGUCAGGCUCCUGGGAGUGGCAUUUCCUGUUUGACCUCUACCCAUCUCCCAGU,0.231
AAGGUUUCCACAUUCGAUGAUGUCAACCUAAACCAGCAGCCAUCCCGCUUGUCCCUCUUAGGCAUUUCAGGCUUCCUUUGGGAUUUCAGGUGUCCCAUGAUCUUGAUGUG,0.418
GAAAUUUUUCUUUCUAACCCAGUGGAGGUUAGAAAGAAGUUAUAUUCUGGUAGCAAAUUAACUUUACAUCCUUUUUCCUACUUGUUAUGGUUGUUUGGACCGAUAAGUGU,0.48
UAAAUUUAUAAAUAUAUUCAGGAGUUGGAAUGUUGUAGUUACCUACUGAGUAGGCGGCGAUUUUUGUAUGUUAUGAACAUGCAGUUCAUUAUUUUGUGGUUCUAUUUUAC,0.693
AUAGAGUUCUCACACCGUUCAAUUUUGCACAUAUGUCCUCAUGGAUCCCCAGUUUUGUCCCUCCACUUGGGCACACGAGGUCUCAGGGGUCCUCAACCUGGGUCUGUGCC,0.64

# Study 4
# Target: Prothrombin, mature alpha-thrombin (F2, Homo sapiens, UniProt P00734)
# Method: aptamer microarray, sandwich
# Molecule type: DNA with 2'F-ANA
# Matrix: in vitro
# Concentration: 200 nM
# Notes: whole 15-mer aptamer, many near background
# Added: Cy3 exosite-II aptamer, 400 nM
# Reading: higher = stronger binding
# Sequence: GGTTGGTGTGGTTGG
Modification,mean fluorescence intensity
2'F-ANA at 6 8 15,532 a.u.
2'F-ANA at 2 3 4 5 6 7 8 10 12 13,52 a.u.
2'F-ANA at 1 4 7 8 9 10 14 15,50 a.u.
2'F-ANA at 1 2 4 6 10 11 12 13 14 15,50.6 a.u.
2'F-ANA at 1 2 5 6 8 9 10 12 13 15,52.1 a.u.
2'F-ANA at 1 3 4 5 6 8 13,49.3 a.u.
2'F-ANA at 1 5 6 7 9 10 11,78.1 a.u.
2'F-ANA at 1 2 3 4 5 7 8 9 10 11 13 15,49.6 a.u.
2'F-ANA at 2 3 4 5 6 7 12 14 15,58.5 a.u.
2'F-ANA at 4 5 6 7 15,62.7 a.u.
2'F-ANA at 1 4 5 6 7 10 11 12,92.1 a.u.
2'F-ANA at 4 10 11 12 14 15,58.7 a.u.
2'F-ANA at 1 3 4 5 10 13 15,59.4 a.u.
2'F-ANA at 2 3 4 10 11 12 15,303 a.u.
2'F-ANA at 3 4 5 6 8 9 11 12 13,107 a.u.
2'F-ANA at 2 4 5 9 11 12 13 15,71.5 a.u.
2'F-ANA at 3 4 6 7 8 10 12 13,275 a.u.
2'F-ANA at 5 9 10 11 12 15,49.4 a.u.
2'F-ANA at 2 4 5 7 9 11 12,116 a.u.

# Study 5
# Target: Sal-like protein 4, full length isoform B (SALL4, Homo sapiens, UniProt Q9UJQ4-2, residues 1-616)
# Method: universal PBM
# Molecule type: double-stranded DNA, one strand shown
# Matrix: in vitro
# Concentration: not given
# Notes: 8-mer, flanks averaged, mean of replicates
# Reading: higher = stronger binding
# Residues (chain): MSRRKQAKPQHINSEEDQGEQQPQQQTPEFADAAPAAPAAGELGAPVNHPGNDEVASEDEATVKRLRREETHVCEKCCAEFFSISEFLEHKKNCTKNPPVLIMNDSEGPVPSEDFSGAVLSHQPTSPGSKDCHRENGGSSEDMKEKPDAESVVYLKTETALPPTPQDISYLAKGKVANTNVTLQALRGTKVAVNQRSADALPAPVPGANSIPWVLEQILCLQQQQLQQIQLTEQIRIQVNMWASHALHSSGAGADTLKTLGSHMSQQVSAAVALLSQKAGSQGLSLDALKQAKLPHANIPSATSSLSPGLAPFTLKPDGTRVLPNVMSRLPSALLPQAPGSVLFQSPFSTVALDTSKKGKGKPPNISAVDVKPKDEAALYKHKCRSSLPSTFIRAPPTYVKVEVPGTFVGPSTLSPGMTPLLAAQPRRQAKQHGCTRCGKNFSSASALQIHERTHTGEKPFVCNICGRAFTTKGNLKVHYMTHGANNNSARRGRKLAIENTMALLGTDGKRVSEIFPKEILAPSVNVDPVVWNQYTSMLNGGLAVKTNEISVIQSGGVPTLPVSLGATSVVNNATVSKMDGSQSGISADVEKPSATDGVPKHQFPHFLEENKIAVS
Sequence,E-score
CCAGATTC,-0.197
ACGGTGGC,-0.228
AACAAATG,0.2
CCTTAGGC,-0.202
AGGGAGAC,-0.189
GAGCCAAC,-0.0384
CACTTTAC,0.157
CAACTTGC,-0.176
CGTGCGGA,-0.198
ATTAAAAA,0.385
TACTCCTA,0.117
CTGACTGA,-0.22
AGGGTACA,0.0421
ATCTTGAG,-0.0174
ATTAGAGG,-0.0403
AAAGGAAA,0.282
ACAGCGAG,-0.0809

# A few entries again (study 5):
Sequence,E-score
CCAGATTC,-0.197
ACGGTGGC,-0.228
AACAAATG,0.2
CCTTAGGC,-0.202
AGGGAGAC,-0.189
GAGCCAAC,-0.0384
CACTTTAC,0.157
CAACTTGC,-0.176
CGTGCGGA,-0.198
ATTAAAAA,0.385
TACTCCTA,0.117
CTGACTGA,-0.22
AGGGTACA,0.0421
ATCTTGAG,-0.0174
ATTAGAGG,-0.0403
